Experimental data from different studies.
Compare with care: the assays were run in different laboratories. Values joined by “and” are separate records of one study, mostly repeats; a detail may differ. ± marks the error that the study gave.

OC(CCN1CCCCC1)(c1ccccc1)C1CC2C=CC1C2 (stereo not drawn): “change in EEG Beta1-power Pz-O1” -9.4% (resting-state EEG; healthy elderly humans; oral, 2 mg, eyes closed, LS mean; baseline: baseline).
COc1nc(NCc2cn(-c3ccc(NC(=O)c4ccc(C)cc4)cc3)nn2)nc(OC)n1: “maximum non-toxic concentration” 2.75 ± 1.12 nM (MTT; normal colonocytes, rat; 72 h).
CC(C)c1c(C(=O)Nc2ccccc2)c(-c2ccccc2)c(-c2ccc(F)cc2)n1CC[C@@H](O)C[C@@H](O)CC(=O)O gave an LDL-C of 43.3 mg/dL (cynomolgus monkey, female, serum; 40 mg/kg or 25 mg/kg, day 86, 2064 h).
For C[C@H](Oc1ccc(Br)cc1-c1ccon1)C(=O)O, “difference from placebo” read 6.78% (muscle velocity recovery cycle; human, tibialis anterior muscle; 600 mg once daily, last response peak at 30 Hz, multiple ascending dose).
COc1ncc(-c2nc3c(n2C(C)C)[C@H](c2ccc(Cl)cc2)N(c2cc(Cl)cn(C)c2=O)C3=O)c(OC)n1 — result for “best overall response”: 14.8% (International Working Group criteria; human acute myeloid leukemia patients; oral, 45 mg, response CRi, low-dose, recommended dose for expansion).
O=C(COc1ccc(Cl)cc1)NC12CC(c3nnc([C@H]4C[C@@H](OC(F)(F)F)C4)o3)(C1)C2 — result for “protein level change”: -79.1% (measured: ATF4; PBMC ex vivo stimulated, human ALS patients; 200 mg, D28 predose; baseline: baseline).
The CPP of O=C(/C=C/c1ccc(O)c(O)c1/C=C/c1ccc(O)c(O)c1)O[C@H](Cc1ccc(O)c(O)c1)C(=O)O is reported as 41.8 mmHg (isolated myocardial tissue; 1 µM).
With CC[C@@H]1[C@H](F)C(=O)N[C@@H]1COc1nccc2cc(C(N)=O)c(OC)cc12 the inhibition was -3.5% (ATP-site probe binding, ActivX profiling, measured: PKD1, PKD2; THP-1 cell lysate; 0.04 mM, Lys2 site).
For O=C(O)CNC(=O)Cc1ccccc1, the sarcomere length was 1.65 µm (ventricular cardiomyocytes, C57BL/6 mouse; dose not given, 0.824 s).
With Cc1oncc1C(=O)Nc1ccc(C(F)(F)F)cc1 the DHO concentration was 4180 ± 382 µM (measured: dihydroorotate; female CD-1 mice, pooled urine; oral, 30 mg/kg daily, 0-8 h after dose 10).
Under “disease control rate”, CC1(C)CCC2(CC1)N[C@@H](C(=O)N[C@@H]1CC[C@@H](C(N)=O)OC1)[C@H](c1ccnc(Cl)c1F)[C@]21C(=O)Nc2cc(Cl)ccc21 is recorded as 50% (human, solid tumours; 90 mg/day, RECIST; baseline: patients).
Cc1n[nH]c2ccc(-c3cc(OC[C@@H](N)Cc4ccccc4)cnc3-c3ccoc3)cc12 — result for “log2 fold change”: -0.466 (kinase binding, competitor, MIB/MS competition, measured: PKH3; Candida albicans cell lysate; 10 µM; baseline: DMSO).
Cc1cc([C@H]2C[C@H]3[C@@H](CF)SC(N)=N[C@@]3(c3ccc(F)cc3F)CO2)on1 gave an Aβ42 level of 0.58 ng/g (measured: Aβx-42; Mus musculus wild-type, brain; subcutaneous, 30 mg/kg, 7 h).
For C[C@H]1O[C@@H](O[C@H]2CC[C@@]3(C)[C@@H](CC[C@]4(C)[C@@H]3C=C[C@]35OC[C@@]6(CCC(C)(C)C[C@H]63)[C@@H](O)C[C@]54C)[C@]2(C)CO)[C@H](O)[C@@H](O[C@@H]2O[C@H](CO)[C@@H](O)[C@H](O)[C@H]2O)[C@H]1O, the SIRT1 immunofluorescence was 25.2% and 21.8% and 28.3% (confocal immunostaining; chronic-plus-binge ethanol-fed mice, liver; dose not given, high dose).
With NCC(=O)Nc1cncc(-c2nn3c(=O)cc(N4CCNCC4)nc3s2)c1 the median inhibition was 47.9% (ADP-induced platelet aggregation, light transmission aggregometry; human, stable CAD on aspirin, platelets ex vivo; subcutaneous, 0.075 mg/kg, 90 min post-dose, added: ADP 20 µM).
For C=Cc1c(C)c2cc3nc(c(CC(=O)O)c4[nH]c(cc5nc(cc1[nH]2)C(C)=C5CC)c(C)c4C(=O)O)[C@@H](CCC(=O)O)[C@@H]3C, “IFN-γ+ CD8+ T cells” read 0.72% and 0.64% and 0.86% and 0.65% (flow cytometry; 4T1 tumour-bearing mice; dose not given).
Cc1cn(-c2cc(NC(=O)c3ccc(C)c(Nc4nccc(-c5cccnc5)n4)c3)cc(C(F)(F)F)c2)cn1: “median difference in change” 1.11 (measured: phospho-tau 181; human, cerebrospinal fluid; dose not given, between 12 and 6 months, unit not given; baseline: placebo).
With CCOCc1nc(O)c(-c2nnc(Cc3ccc(Cl)cn3)o2)c(O)c1-c1c(OC)cccc1OC the MAP change was -2.1 ± 0.6% (instrumented anaesthetised rat; intravenous infusion, 100 µg/kg/min for 15 min, 15 min; baseline: baseline).
NC(=O)c1cnc2[nH]ccc2c1N[C@@H]1[C@@H]2CC3C[C@H]1C[C@@](O)(C3)C2 gave a percent change of -0.5% (CD4+ memory T cells, flow cytometry; Caucasian humans, peripheral blood; 60 mg single dose; baseline: baseline).
CC(C)[C@H](C(=O)Nc1ccc(C(=O)NO)cc1)c1ccccc1 has a tumour volume of 0.0264 cm3 (volumetric MRI; human, left parieto-occipital meningioma; dose not given, day 358).
Under “IFN-γ+ CD8+ T cell frequency”, CC[C@@H](C)[C@@H](NC(=O)[C@@H](Cc1ccc(O)cc1)NC(=O)[C@H]1CCCN1C(=O)[C@@H](CCCNC(=N)N)NC(=O)[C@H](N)Cc1c[nH]cn1)C(=O)N[C@H](C)C(=O)N[C@H](Cc1c[nH]cn1)C(=O)N[C@H](CCCNC(=N)N)C(=O)N[C@@H](C(=O)N[C@H](Cc1ccc(O)cc1)C(=O)N[C@H](CO)C(=O)N[C@H](Cc1ccccc1)C(N)=O)C(C)C is recorded as 4.03% and 6.07% and 6.63% and 4.09% and 5.53% (ex vivo flow cytometry; B16 tumour-bearing mice, tumour-draining lymph node; dose not given).
Under “urine albumin/creatinine ratio”, Cc1cc(F)cc2c(CCC(=O)N[C@@H]3C(=O)NC[C@H]3O)c(-c3ccc(F)cc3)[nH]c12 is recorded as 1570 µg/mg and 305 µg/mg and 89 µg/mg and 302 µg/mg and 180 µg/mg (APOL1 G2 mice, IFNγ-induced; 30 mg/kg twice daily, day 13).
COc1ccc(-c2cncc(N[C@@H](C)c3cccc(NC(=O)c4cncc(C)c4)c3)n2)cc1OC — result for “delta delta Ct”: -0.0536 (measured: rno-miR-361-5p; rat SU5416/hypoxia model, lung; dose not given, unit not given; baseline: SU5416/hypoxia vehicle).
C[C@H]1C[C@H]2CSC(N)=N[C@@]2(c2nc(NC(=O)c3ccc(OC(F)F)cn3)cs2)CO1 — result for “percent change from baseline”: -58.1% (measured: total Aβ; healthy adults, plasma; 125 mg once daily, day 4; baseline: placebo).
The AUC(0-t) of CN(C(=O)n1cnc(-c2ccc[n+]([O-])c2)c1)C1CCCCC1 is reported as 867 ng·h/mL (measured: OEA; human, plasma; 40 mg single dose).
For C[C@@H](Nc1cc(F)cc(F)c1)c1cc(C(=O)N(C)C)cc2c(=O)cc(N3CCOCC3)oc12, “change in membranous pAKT H-score” read -100% (immunohistochemistry, measured: pAKT Ser473; human, tumour biopsy; 120 mg twice daily continuous, day 13, 312 h post-dose; baseline: baseline, direction not given).
For COc1cc2cc(-c3ccc(CC(=O)Nc4cc(C(C)(C)C(F)(F)F)no4)cn3)cnc2cc1OC, “disease control rate” read 74% (human RET fusion-positive NSCLC; 75 mg, phase I, RECIST 1.1).
C[C@@H](NC(=O)N1C(=O)[C@H](Cc2ccnc(N)c2)[C@H]1C(=O)O)C1CCCCC1: “time to maximum PT over baseline” 5 h (human, plasma; continuous intravenous infusion, 2.25 mg/kg/h, days 1 to 6 of 5-day infusion, median; baseline: baseline).
With CC1(C)CCC(c2ccc(Cl)cc2)=C(CN2CCN(c3ccc(C(=O)NS(=O)(=O)c4ccc(N[C@H](CCN5CCOCC5)CSc5ccccc5)c(S(=O)(=O)C(F)(F)F)c4)cc3)CC2)C1 the EC50 was 81 nM (cell killing; canine lymph node CD3+ T cells, dog 33; 24 h).
CCN1CCN(Cc2ccc(Nc3ncc(F)c(-c4cc(F)c5nc6n(c5c4)[C@H](C)CCC6)n3)nc2)CC1: “median progression-free survival” 6.7 months (human advanced solid tumours; 100 mg, phase Ia monotherapy RECIST 1.1).
CC(C)(C)c1cc(C(C)(C)C)c(NC(=O)c2c[nH]c3ccccc3c2=O)cc1O — result for contraction AUC: “no effect” (rat colon ex vivo; 1 nM to 10 µM).
N#Cc1ccc2c(-c3ccncc3)c(-c3ccc(F)cc3)nn2c1 — result for “log2 fold change”: -0.0967 (kinase binding, competitor, MIB/MS competition, measured: CMK2; Candida albicans cell lysate; 10 µM; baseline: DMSO).
For CCCCC1(CCCC)CN(c2ccccc2)c2cc(SC)c(OCC(=O)N[C@@H](C(=O)NCC(=O)O)c3ccccc3)cc2S(=O)(=O)C1, the plasma C4 was 21.7 ng/mL (measured: 7α-hydroxy-4-cholesten-3-one; human, plasma; 2.5 mg once daily, day 1).
With O=C(OC(C(F)(F)F)C(F)(F)F)N1CCN(Cc2cccc(Oc3ccccc3)c2)CC1 the k3 was 0.026 min⁻¹ (PET blocking study; rhesus monkey, brain Pons; 0.01 mg/kg, compound pretreatment, added: [18F]T-401 tracer).
For CSCCNc1nc(SCCC(F)(F)F)nc2c1ncn2[C@@H]1O[C@H](COP(=O)(O)OP(=O)(O)C(Cl)(Cl)P(=O)(O)O)[C@@H](O)[C@H]1O, “patients with inhibition above threshold” read 0% (platelet aggregation, light transmission aggregometry; human patients, platelet-rich plasma; dose not given, 1 h, inhibition threshold 90%, added: TRAP 15 µM).
N#Cc1ccn2c(-c3ccncc3)c(-c3ccc(F)cc3)nc2c1: “log2 fold change” 0.348 (kinase binding, competitor, MIB/MS competition, measured: CKA2; Candida albicans cell lysate; 10 µM; baseline: DMSO).
Cc1noc(C)c1-c1cc(C(O)(c2ccccn2)c2ccccn2)c2nc(C3CC3)[nH]c2c1 gave a maximum inhibition of 43.3% (measured: CCR2 expression; human, peripheral blood; 1.4 mg, day 1, 1599 study).
CN[C@@H]1COc2c(S(=O)(=O)NC(=O)Nc3c4c(cc5c3CCC5)CCC4)cnn2C1 has an inhibition of 99.4% (measured: IL-18; human participants, whole blood ex vivo; 150 mg single dose, 4 h, IL-18, circulating, adjusted for, added: LPS/ATP; baseline: baseline).
CC(C)NCC(O)c1ccc(O)c(O)c1 (stereo not drawn) has a sarcomere length of 1.71 µm (ventricular cardiomyocytes, C57BL/6 mouse; dose not given, 0.62 s).
Under “maximum non-toxic concentration”, COc1nc(NCc2cn(-c3ccc(NC(=O)c4ccc([N+](=O)[O-])cc4)cc3)nn2)nc(OC)n1 is recorded as 3.48 ± 0.1 nM (MTT; normal colonocytes, rat; 72 h).
Under necroptosis inhibition, CC(C)S(=O)(=O)c1ccc2nccc(Nc3ccc4scnc4c3)c2c1 is recorded as “inhibited” (SYTOX Green IncuCyte imaging; 3T3SA, mouse; 10 µM, added: TNF plus zVAD).
C=C1CC[C@H](OCCCNC(=O)CCOCCOCCOCCOCCOCCOCCOCCOCCOCCOCCOCCOCCOCCOCCOCCOCCOCCOCCOCCOCCOCCOCCOCCOCCOCCOCCOCCOCCOCCOCCOCCOCCOCCOCCOCCOCCNC(=O)CCN2C(=O)CC(SC[C@H](NC(=O)[C@H](CCCNC(=N)N)NC(=O)[C@@H]3CCCN3C(=O)[C@H](CCC(N)=O)NC(=O)[C@H](CC(C)C)NC(=O)[C@H](CCCCN)NC(=O)[C@H](C)NC(=O)[C@@H]3CCCN3C(=O)[C@@H]3CCCN3C(=O)[C@H](CCCCN)NC(=O)[C@H](CCCCN)NC(=O)[C@H](CO)NC(=O)[C@H](CCC(=O)O)NC(=O)[C@H](CCCCN)NC(=O)[C@H](CCCNC(=N)N)NC(=O)[C@H](CCC(N)=O)NC(=O)[C@H](CCC(N)=O)NC(=O)[C@@H](NC(=O)[C@H](CCCNC(=N)N)NC(=O)[C@H](CCC(N)=O)NC(=O)[C@H](Cc3c[nH]cn3)NC(=O)[C@H](CCC(=O)O)NC(=O)[C@@H]3CCCN3C(=O)[C@H](CO)NC(=O)[C@H](CC(C)C)NC(=O)[C@H](Cc3ccccc3)NC(=O)[C@H](CNC(=O)CCCCCCC)NC(=O)[C@H](CO)NC(=O)CN)C(C)C)C(=O)O)C2=O)C/C1=C/C=C1\CCC[C@]2(C)[C@@H]([C@H](C)CCCC(C)(C)O)CC[C@@H]12 (stereo partly drawn) — result for mRNA level: “decreased” (real-time RT-PCR, measured: Fbxo32; mice, LLC tumour-bearing, tibialis anterior; daily or every other day; baseline: tumour-bearing vehicle).
For c1ccc(-c2n[nH]cc2-c2ccnc3ccccc23)nc1, “log2 fold change” read 0.939 (kinase binding, competitor, MIB/MS competition, measured: SHA3; Candida albicans cell lysate; 1 µM; baseline: DMSO).
The Aβ42 level of Cc1cc([C@H]2C[C@H]3[C@@H](C)SC(N)=N[C@@]3(c3ccc(F)cc3F)CO2)on1 is reported as 0.24 ng/g (measured: Aβx-42; Mus musculus wild-type, brain; subcutaneous, 50 mg/kg, 9 h).
For N=C(N)NCCC[C@H](NC(=O)[C@H](CCCNC(=N)N)NC(=O)[C@H](CCCCN)NC(=O)[C@H](CCC(N)=O)NC(=O)[C@H](CCCCN)NC(=O)[C@H](Cc1ccc(O)cc1)NC(=O)[C@@H](N)CCCCN)C(=O)N[C@@H](CO)C(=O)N[C@@H](Cc1ccc(O)cc1)C(=O)N[C@@H](CCCCN)C(=O)O, “change from baseline in VAS score” read -11.5 ± 16.3 (human, dentin hypersensitivity patients, aged ≥sample A years; topical to tooth, 5 µg/tooth, day 36, phase trial; direction not given).
